Results from different studies.
Numbered parts are unrelated; each lists some results of a single study.
UniProt P10398, sequence (whole entry, looked up): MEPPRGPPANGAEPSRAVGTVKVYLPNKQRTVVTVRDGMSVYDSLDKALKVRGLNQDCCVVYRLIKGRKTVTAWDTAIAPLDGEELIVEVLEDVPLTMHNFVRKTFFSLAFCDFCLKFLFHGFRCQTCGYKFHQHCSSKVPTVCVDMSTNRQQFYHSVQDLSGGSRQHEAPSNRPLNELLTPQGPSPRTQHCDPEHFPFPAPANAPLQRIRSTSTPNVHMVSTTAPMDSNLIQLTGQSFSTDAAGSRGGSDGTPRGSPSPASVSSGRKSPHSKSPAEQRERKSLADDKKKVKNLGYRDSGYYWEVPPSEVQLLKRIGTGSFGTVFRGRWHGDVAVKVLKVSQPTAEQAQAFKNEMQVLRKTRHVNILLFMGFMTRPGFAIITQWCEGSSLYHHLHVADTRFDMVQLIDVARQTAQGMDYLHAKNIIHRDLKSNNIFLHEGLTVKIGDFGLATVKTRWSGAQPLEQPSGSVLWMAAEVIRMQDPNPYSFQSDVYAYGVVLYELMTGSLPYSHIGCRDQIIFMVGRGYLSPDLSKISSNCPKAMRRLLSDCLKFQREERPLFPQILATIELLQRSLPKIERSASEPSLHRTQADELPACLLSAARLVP
UniProt Q15349, sequence (whole entry, looked up): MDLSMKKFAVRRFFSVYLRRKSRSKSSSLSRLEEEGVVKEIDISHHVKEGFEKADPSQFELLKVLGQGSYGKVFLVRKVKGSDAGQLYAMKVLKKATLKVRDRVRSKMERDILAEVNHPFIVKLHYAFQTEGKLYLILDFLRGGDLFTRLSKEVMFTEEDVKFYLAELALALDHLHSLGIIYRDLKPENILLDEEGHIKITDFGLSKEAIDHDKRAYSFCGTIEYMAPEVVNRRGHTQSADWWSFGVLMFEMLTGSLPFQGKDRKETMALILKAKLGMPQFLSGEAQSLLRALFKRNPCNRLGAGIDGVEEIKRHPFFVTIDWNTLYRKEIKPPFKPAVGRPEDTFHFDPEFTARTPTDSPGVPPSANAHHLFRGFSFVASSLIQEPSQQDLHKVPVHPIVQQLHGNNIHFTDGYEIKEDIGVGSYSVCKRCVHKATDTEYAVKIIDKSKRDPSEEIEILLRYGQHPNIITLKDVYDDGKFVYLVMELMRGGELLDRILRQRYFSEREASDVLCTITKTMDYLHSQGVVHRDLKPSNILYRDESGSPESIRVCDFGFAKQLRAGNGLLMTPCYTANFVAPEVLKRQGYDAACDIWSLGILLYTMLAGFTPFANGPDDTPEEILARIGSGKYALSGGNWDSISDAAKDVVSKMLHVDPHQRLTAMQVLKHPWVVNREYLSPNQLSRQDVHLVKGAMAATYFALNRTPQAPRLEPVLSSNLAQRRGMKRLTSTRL
UniProt P22607, sequence (whole entry, looked up): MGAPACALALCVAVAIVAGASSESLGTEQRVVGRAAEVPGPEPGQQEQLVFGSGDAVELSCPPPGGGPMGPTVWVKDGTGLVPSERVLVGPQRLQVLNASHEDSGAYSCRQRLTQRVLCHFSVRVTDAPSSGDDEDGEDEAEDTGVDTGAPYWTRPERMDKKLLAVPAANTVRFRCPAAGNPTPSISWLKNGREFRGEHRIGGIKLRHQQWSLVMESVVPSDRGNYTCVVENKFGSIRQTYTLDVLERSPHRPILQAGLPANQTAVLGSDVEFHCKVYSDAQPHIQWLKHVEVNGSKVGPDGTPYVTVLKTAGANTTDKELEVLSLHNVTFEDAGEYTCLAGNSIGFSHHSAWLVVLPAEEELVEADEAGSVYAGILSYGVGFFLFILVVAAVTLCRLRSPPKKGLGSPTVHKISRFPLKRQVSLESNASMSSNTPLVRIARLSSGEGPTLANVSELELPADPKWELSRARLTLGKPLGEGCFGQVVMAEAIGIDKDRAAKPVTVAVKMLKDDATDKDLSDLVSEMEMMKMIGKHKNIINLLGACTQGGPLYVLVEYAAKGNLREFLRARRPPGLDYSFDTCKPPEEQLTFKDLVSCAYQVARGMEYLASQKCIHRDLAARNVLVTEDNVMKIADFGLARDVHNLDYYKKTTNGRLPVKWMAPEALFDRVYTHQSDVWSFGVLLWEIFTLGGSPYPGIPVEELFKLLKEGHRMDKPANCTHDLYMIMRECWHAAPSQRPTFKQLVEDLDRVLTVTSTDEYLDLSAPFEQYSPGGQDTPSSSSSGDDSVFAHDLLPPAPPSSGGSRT
UniProt P36896, sequence (whole entry, looked up): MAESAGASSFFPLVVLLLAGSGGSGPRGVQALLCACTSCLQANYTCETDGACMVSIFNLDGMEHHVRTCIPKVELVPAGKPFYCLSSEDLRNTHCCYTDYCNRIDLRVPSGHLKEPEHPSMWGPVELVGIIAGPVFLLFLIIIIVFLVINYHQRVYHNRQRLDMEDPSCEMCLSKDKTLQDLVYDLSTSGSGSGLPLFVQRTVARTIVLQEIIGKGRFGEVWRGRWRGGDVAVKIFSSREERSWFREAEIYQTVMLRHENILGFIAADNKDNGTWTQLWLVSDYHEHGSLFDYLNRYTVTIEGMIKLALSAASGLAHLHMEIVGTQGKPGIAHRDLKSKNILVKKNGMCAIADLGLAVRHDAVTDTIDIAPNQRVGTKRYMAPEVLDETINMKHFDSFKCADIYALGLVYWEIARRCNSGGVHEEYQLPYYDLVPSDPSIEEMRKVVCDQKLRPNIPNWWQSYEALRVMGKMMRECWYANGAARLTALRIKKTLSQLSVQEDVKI
UniProt Q8IYT8, sequence (whole entry, looked up): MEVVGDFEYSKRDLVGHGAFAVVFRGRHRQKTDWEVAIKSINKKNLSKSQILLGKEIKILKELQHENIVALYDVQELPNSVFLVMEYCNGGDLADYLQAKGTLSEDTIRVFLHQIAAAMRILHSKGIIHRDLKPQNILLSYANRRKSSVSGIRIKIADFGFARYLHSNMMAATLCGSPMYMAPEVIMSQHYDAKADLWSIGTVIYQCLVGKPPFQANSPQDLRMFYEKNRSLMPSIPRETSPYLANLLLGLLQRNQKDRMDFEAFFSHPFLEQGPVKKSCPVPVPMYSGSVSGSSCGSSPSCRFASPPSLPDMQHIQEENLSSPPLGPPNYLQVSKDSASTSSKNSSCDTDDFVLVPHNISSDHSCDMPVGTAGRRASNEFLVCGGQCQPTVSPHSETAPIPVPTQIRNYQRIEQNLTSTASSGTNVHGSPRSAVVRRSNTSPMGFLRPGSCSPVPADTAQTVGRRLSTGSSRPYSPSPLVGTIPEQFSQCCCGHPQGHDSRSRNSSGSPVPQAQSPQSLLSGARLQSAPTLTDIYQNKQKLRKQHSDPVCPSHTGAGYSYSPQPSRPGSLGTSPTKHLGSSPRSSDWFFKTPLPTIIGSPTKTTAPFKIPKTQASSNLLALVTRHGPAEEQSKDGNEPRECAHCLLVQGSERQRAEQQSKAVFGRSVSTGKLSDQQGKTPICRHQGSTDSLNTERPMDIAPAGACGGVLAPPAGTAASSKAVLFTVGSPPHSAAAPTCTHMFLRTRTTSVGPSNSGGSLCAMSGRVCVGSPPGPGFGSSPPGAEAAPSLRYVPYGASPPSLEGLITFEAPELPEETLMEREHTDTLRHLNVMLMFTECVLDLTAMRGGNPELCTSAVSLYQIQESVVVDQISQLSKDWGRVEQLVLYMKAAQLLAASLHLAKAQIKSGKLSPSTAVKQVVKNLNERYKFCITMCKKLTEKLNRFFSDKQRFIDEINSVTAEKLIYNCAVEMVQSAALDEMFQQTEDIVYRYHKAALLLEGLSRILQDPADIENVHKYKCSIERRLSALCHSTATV
UniProt Q12866, sequence (whole entry, looked up): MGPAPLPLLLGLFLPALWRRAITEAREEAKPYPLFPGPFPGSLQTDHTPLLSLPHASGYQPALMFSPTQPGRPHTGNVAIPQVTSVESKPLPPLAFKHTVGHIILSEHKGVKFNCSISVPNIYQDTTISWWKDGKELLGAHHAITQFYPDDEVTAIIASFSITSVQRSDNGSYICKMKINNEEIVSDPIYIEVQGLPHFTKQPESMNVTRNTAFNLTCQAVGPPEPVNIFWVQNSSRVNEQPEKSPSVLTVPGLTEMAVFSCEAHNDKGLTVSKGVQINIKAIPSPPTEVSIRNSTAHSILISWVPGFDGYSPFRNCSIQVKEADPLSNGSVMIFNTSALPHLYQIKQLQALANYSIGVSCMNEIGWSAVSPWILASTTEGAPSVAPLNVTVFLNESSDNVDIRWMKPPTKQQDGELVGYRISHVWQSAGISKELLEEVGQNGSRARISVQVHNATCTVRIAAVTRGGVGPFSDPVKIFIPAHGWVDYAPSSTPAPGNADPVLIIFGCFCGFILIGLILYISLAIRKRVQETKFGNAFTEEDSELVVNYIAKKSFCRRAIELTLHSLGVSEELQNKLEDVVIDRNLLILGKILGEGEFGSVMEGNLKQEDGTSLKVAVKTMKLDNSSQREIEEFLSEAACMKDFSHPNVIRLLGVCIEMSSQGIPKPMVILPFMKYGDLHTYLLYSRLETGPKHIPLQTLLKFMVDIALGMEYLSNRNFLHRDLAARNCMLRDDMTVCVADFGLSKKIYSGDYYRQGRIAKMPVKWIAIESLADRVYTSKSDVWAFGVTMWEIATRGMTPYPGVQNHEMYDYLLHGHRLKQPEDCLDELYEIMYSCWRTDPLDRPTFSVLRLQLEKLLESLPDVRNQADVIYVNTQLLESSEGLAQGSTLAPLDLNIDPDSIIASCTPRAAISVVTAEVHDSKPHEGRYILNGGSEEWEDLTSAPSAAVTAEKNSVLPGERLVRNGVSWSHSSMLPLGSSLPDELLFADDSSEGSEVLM

Study 1
SMILES: O=C1NC(=O)/C(=C/c2ccc3c(c2)OC(F)(F)O3)S1
Observed: enzyme activity
Mode: inhibitor
Concentration: 0.5 µM
Relative to: control
target | remaining activity
MERTK (Homo sapiens, UniProt Q12866) | 94.5%
MAPK3 (Homo sapiens, UniProt P27361) | 91.6%
MAPKAPK2 (Homo sapiens, UniProt P49137) | 94.4%
FGFR3 (Homo sapiens, UniProt P22607) | 96.4%
ARAF (Homo sapiens, UniProt P10398) | 104%
MAP3K14 (Homo sapiens, UniProt Q99558) | 106%
CSNK1G2 (Homo sapiens, UniProt P78368) | 84.5%
RPS6KA2 (Homo sapiens, UniProt Q15349) | 97.3%
ACVR1B (Homo sapiens, UniProt P36896) | 99.4%
GRK7 (Homo sapiens, UniProt Q8WTQ7) | 102%
ULK3 (Homo sapiens, UniProt Q6PHR2) | 109%
MAP3K5 (Homo sapiens, UniProt Q99683) | 105%
GSK3B (Homo sapiens, UniProt P49841) | 92.3%
ULK2 (Homo sapiens, UniProt Q8IYT8) | 100%

Study 2
Target: Centromere-binding protein 1, full length, N-terminal tag (CBF1, Saccharomyces cerevisiae, UniProt P17106, residues 1-351)
UniProt P17106, sequence (whole entry, looked up): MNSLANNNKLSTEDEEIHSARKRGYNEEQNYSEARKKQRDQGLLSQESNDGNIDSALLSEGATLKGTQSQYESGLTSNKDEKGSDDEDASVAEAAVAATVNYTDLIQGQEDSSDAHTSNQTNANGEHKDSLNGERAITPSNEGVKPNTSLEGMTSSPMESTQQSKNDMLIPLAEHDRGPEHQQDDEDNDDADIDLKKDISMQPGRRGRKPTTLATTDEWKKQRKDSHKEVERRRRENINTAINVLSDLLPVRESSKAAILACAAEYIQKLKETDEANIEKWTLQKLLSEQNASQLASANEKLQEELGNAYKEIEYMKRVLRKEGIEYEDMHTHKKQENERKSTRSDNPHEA
Method: protein-binding microarray
Molecule type: double-stranded DNA, one strand shown
Matrix: in vitro
Concentration: 0.8 µM
Notes: whole 60-bp probe, no competitor
Reading: higher = stronger binding
Constant ends, left off below: … GTCTTGATTCGCTTGACGCTGCTG
Strand | fluorescence intensity
CTAAAGCTGCTATTTCAACTGATTATCTGCAGATTC | 544 a.u.
GAAGATCACGACCCGCGGGTGAGCCCACACTCATAG | 759 a.u.
GAATACAATTTTGCTCACGTTTTAAGCCGCCCATAG | 893 a.u.
CTATACGGTTGAAATCACGTGTCGTTAGGATAATTC | 9540 a.u.
CTACCACTATTACGTGGTGCTTCCAGTAGCGCTTTC | 496 a.u.
GAAATTATTCATCCGCACGTGGCTGCACACGTGTAG | 10100 a.u.
CCTAACTACTATATCCACGCGCAATAGCTTCGTACA | 521 a.u.
GAAATTTGATAAAATCACCTGGCATTACGGTGATAG | 723 a.u.

Study 3
Target: PABPC1L2, full length, GST fusion (mouse, UniProt A0ABA7IW68)
Method: RNAcompete
Molecule type: RNA
Matrix: in vitro
Concentration: 20 nM
Notes: 7-mer, probes averaged, single round
Relative to: mean of 7-mers
Reading: higher = stronger binding
Strand | 7-mer Z-score
AUGUGAG | -0.0482
UUGACUC | -0.217
ACACUCA | 0.0315
UCACUGC | -0.119
CGCAACU | -0.184
GGCCAUC | -0.0808
GUCGAAG | -0.157
AGGUUCG | -0.325

Single results of other studies
Structure (SMILES) | target | observed | concentration | endpoint | result
Cc1c(N2CCCC2)nc2ccc(Br)cc2c1C(=O)NC[C@H](CCC(=O)O)c1ccccc1Cl | 5-hydroxytryptamine receptor 2B (HTR2B, Homo sapiens, UniProt P41595) | cell-free assay | 10 µM | inhibition | 5.5%

For quick reference, copied from above (study 1):
target | remaining activity
MERTK (Homo sapiens, UniProt Q12866) | 94.5%
MAP3K5 (Homo sapiens, UniProt Q99683) | 105%
